Measured values pooled from the literature.
Lines come from different studies, so protocols differ. Several values in a cell are separate wells, animals, samples, runs or records. Numbers after ± are the reported error.
ACHE: Acetylcholinesterase (ACHE, Homo sapiens, UniProt P22303)
Sequence of UniProt P22303 (whole entry, looked up): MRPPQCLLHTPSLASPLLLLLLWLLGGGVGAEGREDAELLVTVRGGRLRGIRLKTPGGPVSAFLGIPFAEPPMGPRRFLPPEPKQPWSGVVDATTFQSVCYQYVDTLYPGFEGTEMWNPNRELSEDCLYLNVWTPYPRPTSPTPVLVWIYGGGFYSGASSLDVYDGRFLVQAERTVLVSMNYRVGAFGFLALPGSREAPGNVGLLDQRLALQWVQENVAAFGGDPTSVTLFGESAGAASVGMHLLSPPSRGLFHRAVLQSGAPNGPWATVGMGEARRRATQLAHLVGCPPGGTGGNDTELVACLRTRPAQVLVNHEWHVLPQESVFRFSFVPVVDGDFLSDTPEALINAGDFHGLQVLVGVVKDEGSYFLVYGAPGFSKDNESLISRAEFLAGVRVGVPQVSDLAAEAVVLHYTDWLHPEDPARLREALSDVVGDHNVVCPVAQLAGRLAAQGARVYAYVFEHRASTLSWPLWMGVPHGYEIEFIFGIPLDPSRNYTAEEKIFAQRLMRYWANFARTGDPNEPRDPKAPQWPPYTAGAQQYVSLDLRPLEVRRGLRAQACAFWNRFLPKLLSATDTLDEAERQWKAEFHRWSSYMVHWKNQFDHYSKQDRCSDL
PFF0160c E182D: Dihydroorotate dehydrogenase (quinone), mitochondrial (PFF0160c, Plasmodium falciparum, UniProt Q08210, E182D)
Sequence of UniProt P27361 (whole entry, looked up): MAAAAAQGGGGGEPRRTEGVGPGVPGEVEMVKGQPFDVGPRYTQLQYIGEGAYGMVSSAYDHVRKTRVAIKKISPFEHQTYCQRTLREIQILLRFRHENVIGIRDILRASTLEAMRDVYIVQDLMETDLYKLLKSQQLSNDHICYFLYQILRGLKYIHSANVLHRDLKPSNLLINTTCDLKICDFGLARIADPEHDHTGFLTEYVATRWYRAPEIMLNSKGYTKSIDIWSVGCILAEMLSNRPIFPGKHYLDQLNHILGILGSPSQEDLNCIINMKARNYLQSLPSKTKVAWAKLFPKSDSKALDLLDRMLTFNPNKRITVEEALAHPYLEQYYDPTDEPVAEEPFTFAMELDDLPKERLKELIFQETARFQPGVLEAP
Sequence of UniProt Q9UHD2 (whole entry, looked up): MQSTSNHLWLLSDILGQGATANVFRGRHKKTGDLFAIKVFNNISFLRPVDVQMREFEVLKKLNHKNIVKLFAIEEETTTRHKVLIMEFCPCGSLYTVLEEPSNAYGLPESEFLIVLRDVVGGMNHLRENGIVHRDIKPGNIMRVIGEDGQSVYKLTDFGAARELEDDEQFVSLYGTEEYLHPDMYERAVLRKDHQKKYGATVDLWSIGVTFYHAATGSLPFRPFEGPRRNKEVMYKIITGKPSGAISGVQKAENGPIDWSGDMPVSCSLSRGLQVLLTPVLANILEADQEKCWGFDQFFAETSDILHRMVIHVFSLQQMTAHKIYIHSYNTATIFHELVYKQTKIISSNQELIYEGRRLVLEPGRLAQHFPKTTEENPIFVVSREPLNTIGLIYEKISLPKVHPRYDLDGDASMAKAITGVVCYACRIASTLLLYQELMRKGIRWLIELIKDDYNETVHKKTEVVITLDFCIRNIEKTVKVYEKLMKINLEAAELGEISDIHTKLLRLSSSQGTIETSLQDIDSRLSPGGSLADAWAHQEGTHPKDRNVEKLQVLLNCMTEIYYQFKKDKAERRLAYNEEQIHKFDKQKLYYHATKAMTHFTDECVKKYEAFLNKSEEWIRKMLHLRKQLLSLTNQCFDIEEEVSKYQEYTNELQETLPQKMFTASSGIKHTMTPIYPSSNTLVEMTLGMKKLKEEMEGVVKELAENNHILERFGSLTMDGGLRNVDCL
Sequence of UniProt Q53H76 (whole entry, looked up): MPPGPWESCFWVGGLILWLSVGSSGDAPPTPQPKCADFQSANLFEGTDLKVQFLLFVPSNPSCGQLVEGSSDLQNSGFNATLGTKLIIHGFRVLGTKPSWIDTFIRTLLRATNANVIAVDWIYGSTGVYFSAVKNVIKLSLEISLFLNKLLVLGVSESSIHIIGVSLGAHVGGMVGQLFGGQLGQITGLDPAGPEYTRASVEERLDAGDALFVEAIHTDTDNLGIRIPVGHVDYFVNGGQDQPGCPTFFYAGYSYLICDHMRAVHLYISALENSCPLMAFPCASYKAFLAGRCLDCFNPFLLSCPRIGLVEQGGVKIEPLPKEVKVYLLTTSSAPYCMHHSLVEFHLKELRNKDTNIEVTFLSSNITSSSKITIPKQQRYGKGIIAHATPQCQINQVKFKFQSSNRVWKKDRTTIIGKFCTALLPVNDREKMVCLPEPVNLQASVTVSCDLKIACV
Sequence of UniProt Q8TDU6 (whole entry, looked up): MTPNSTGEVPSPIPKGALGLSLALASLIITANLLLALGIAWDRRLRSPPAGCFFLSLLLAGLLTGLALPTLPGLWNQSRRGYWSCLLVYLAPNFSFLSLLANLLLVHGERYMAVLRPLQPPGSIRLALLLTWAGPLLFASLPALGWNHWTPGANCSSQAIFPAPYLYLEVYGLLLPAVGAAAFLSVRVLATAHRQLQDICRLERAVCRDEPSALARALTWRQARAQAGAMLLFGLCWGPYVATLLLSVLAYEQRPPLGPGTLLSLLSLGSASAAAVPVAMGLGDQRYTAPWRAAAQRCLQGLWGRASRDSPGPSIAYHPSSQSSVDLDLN
Sequence of UniProt P35354 (whole entry, looked up): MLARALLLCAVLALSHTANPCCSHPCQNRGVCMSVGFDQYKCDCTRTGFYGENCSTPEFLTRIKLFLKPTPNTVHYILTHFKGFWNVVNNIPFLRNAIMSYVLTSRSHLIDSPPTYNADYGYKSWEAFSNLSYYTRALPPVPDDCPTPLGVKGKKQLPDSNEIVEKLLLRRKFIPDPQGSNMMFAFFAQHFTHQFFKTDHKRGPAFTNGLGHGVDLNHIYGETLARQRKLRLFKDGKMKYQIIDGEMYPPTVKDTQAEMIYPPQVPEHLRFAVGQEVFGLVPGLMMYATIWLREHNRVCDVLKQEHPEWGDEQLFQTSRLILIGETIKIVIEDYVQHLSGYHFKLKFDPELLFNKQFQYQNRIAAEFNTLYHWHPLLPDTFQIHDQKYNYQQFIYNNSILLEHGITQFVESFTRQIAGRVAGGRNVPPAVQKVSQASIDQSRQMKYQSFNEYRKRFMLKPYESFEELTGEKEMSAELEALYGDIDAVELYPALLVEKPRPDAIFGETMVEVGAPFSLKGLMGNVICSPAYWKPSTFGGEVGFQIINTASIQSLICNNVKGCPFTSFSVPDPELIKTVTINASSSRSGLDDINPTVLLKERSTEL
Sequence of UniProt P31645 (whole entry, looked up): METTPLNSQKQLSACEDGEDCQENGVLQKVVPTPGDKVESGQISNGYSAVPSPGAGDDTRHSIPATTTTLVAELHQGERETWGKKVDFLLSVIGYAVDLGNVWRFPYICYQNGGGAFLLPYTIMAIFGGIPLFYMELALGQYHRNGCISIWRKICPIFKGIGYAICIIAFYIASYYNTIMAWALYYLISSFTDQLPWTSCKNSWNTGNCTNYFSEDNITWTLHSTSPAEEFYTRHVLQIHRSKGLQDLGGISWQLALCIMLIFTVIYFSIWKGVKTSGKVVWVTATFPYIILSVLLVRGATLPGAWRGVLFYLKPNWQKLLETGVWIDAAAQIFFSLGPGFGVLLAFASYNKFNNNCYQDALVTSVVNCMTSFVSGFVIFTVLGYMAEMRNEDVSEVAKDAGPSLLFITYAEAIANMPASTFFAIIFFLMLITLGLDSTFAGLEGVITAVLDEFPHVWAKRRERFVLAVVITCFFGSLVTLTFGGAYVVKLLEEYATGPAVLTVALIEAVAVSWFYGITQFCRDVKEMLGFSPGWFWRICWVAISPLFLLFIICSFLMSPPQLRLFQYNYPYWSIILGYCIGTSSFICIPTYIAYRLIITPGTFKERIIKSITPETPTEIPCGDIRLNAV
Sequence of UniProt P31424 (whole entry, looked up): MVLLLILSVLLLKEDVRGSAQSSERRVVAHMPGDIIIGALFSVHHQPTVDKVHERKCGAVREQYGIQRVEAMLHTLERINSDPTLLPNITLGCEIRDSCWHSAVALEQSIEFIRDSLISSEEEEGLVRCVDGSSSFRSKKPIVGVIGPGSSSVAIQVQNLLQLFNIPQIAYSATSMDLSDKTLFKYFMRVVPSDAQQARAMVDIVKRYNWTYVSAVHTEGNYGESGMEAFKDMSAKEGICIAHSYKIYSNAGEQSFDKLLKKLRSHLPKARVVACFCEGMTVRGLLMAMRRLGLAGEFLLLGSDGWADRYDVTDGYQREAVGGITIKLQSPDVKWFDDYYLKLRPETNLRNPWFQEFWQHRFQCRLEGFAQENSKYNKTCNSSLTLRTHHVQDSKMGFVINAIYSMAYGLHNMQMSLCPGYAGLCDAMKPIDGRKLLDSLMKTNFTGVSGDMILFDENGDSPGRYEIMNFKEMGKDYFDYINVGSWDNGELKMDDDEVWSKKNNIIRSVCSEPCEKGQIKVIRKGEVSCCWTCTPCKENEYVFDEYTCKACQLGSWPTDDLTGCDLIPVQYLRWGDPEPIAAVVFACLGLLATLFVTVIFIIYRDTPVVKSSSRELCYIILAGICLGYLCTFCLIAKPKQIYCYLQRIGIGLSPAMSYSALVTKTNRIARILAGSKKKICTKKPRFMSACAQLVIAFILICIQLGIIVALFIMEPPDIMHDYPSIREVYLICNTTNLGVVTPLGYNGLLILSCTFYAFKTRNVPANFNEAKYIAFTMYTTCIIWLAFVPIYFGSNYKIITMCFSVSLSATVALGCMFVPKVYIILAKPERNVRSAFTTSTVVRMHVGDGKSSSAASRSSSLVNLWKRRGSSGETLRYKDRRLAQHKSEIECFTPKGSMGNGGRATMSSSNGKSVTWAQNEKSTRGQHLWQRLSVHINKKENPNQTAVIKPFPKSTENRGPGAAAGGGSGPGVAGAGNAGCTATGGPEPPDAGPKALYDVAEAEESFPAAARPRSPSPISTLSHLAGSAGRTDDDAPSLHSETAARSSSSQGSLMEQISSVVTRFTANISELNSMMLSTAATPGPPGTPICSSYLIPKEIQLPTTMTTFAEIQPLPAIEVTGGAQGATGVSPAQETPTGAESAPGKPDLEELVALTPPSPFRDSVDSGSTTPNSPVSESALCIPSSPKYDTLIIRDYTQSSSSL

SMILES | target | test | test system | conditions | scale | endpoint | result
[2H]c1c([2H])c([C@]2([2H])CCCN2C(=O)C(C)(C)Oc2ccc3cn[nH]c3c2)c([2H])c([2H])c1C([2H])([2H])[2H] | Serine/threonine-protein kinase TBK1 (TBK1, Homo sapiens, UniProt Q9UHD2) | KINOMEscan | – | 1 µM | reference: DMSO control | remaining binding | 84%
Nc1nc2c(ncn2[C@@H]2O[C@H](COP(=O)(O)OP(=O)(O)OP(=O)(O)O)[C@@H](O)[C@H]2O)c(=O)[nH]1 | GTP 3',8-cyclase (moaA, Staphylococcus aureus, UniProt P69848, R266A) | isothermal titration calorimetry | – | concentration not given, 25 °C, R266A mutant, anaerobic | – | binding enthalpy | -6.2 ± 0.5 kcal/mol
NCCc1c[nH]c2ccc(O)cc12 | AANAT Tragulus javanicus | enzyme activity, colorimetric DTNB | – | added: acetyl-CoA | – | Km | 230 ± 110 µM
CC12CCC(CC1)C(C)(C)O2 | 1,8-cineole 2-endo-monooxygenase (cinA, Citrobacter braakii, UniProt Q8VQF6) | NADPH consumption, substrate | – | 200 µM, pH 7.8, room temperature, wild-type variant, 50 mM Tris, added: Fpr and Cdx | – | kcat | 4.22 ± 0.09 s⁻¹
Clc1cccc(-c2cccc(Cl)c2)c1 | Aryl hydrocarbon receptor (AHR, Homo sapiens, UniProt P35869) | reporter gene, antagonist | AZ-AHR cells | 24 h, added: TCDD 4.5 nM | – | IC25 | 17 µM
CN1CCN(c2cc(-c3ccncc3)c(-c3ccc4ccccc4c3)nn2)CC1 | Corticotropin-releasing factor receptor 2 (CRHR2, Homo sapiens, UniProt Q13324) | antagonist, FLIPR | – | 10 µM | – | inhibition | 12.8%
O=C(c1ccc(Cl)cc1)N1CCN2C(=O)N(OC(=O)N3CCOc4ccccc43)C(=O)C2C1 (stereo not shown) | Phospholipase A1 member A (PLA1A, Homo sapiens, UniProt Q53H76) | MS-based ABPP | SW-620 conditioned medium | 10 µM, 1 h, 37 °C | reference: compound over DMSO, lower = more inhibition | mean protein ratio | 1.03
Oc1ccc(Cl)cc1Cc1cc(Cl)ccc1O | ACHE | – | biochemical | concentration not given | – | activity class | inactive
O=C(Nc1cccnn1)N1CCC(=Cc2cccc(Oc3ccc(C(F)(F)F)cn3)c2)CC1 | Sodium-dependent serotonin transporter (SLC6A4, Homo sapiens, UniProt P31645) | radioligand binding, inhibitor | – | 50 µM, human, added: [3H]paroxetine | – | inhibition | 34%
COc1cc(N)c(Cl)cc1C(=O)NC1CN2CCC1CC2 (stereo not shown) | G-protein coupled bile acid receptor 1 (GPBAR1, Homo sapiens, UniProt Q8TDU6) | receptor activation, TANGO luminescence | – | concentration not given, unconfirmed screen | reference: vehicle control | log2 fold change | 0.162
c1csc(-c2nnc3sc(Cc4ccc5c(c4)CCCC5)nn23)c1 | PFF0160c E182D | enzyme activity, DCIP colorimetric | – | – | reference: E182D mutant over wild type | IC50 ratio | 1.3
C[C@H]1COCCN1c1nc(NCc2cccnc2C(F)(F)F)c2cccnc2n1 | Prostaglandin G/H synthase 2 (PTGS2, Homo sapiens, UniProt P35354) | inhibitor | – | – | – | IC50 | > 100 µM
Clc1cc2c(cc1Cl)Oc1cc(Cl)c(Cl)cc1O2 | Uncharacterized protein (Takifugu rubripes, UniProt Q4JHL2) | reporter gene, agonist, dual-luciferase | COS-7 | 0.1 µM, 28 h | reference: DMSO | fold induction | 4.92
Oc1ccc2ccc3cccc4ccc1c2c34 | Aryl hydrocarbon receptor (Danio rerio, UniProt Q9YGV3) | reporter gene, agonist, luciferase reporter | ZF-4 | 10000 µM | reference: vehicle control | fold change | 2.03
C[C@@H](NC(=O)c1ccc(C#Cc2cccc(F)c2)cn1)C(C)(C)O | Metabotropic glutamate receptor 5 (Grm5, Rattus norvegicus, UniProt P31424) | calcium response, positive allosteric modulator | HEK293 | added: glutamate | – | fold shift of glutamate EC50 | 6.6 fold
Nc1c2c(nc3sc4c(c13)CCCC4)CCCC2 | Glideosome-associated protein 50 (GAP50, Plasmodium falciparum, UniProt Q8I2X3) | binding, surface plasmon resonance | – | 1:1 binding model | – | koff | 1.84 s⁻¹
CC[C@H]1NC(=O)[C@@H]2CSC(=N2)[C@H](Cc2ccccc2)N(C)C(=O)[C@@H]2CCCN2C(=O)[C@H](C(C)C)N(C)C(=O)[C@H](Cc2ccccc2)OC(=O)[C@H](C)[C@@H](C)NC(=O)[C@@H]([C@@H](C)O)NC(=O)[C@@H](CC(C)C)N(C)C(=O)[C@@H]2CSC1=N2 | Dipeptidyl peptidase 8 (Homo sapiens, UniProt Q6V1X1) | – | – | – | reference: IC50 DPP4 over DPP8 | selectivity ratio | 38.2 fold
CC[C@H](C)[C@H](NC(=O)CNC(=O)[C@@H](N)CCCCN)C(=O)N[C@@H](CC(C)C)C(=O)N[C@@H](CCCCN)C(=O)N[C@@H](CCCNC(=N)N)C(=O)N[C@@H](CCC(=O)O)C(=O)N[C@@H](CCCCN)C(=O)N[C@@H](CCCNC(=N)N)C(=O)N[C@@H](CC(C)C)C(=O)N[C@@H](CCCNC(=N)N)C(=O)N[C@@H](CCCNC(=N)N)C(=O)N[C@@H](CCCCN)C(=O)N[C@@H](CC(N)=O)C(=O)N[C@H](C(=O)N[C@@H](Cc1c[nH]cn1)C(=O)N[C@@H](Cc1c[nH]c2ccccc12)C(=O)N1CCC[C@H]1C(=O)N[C@@H](CCC(=O)O)C(=O)N[C@@H](CCC(=O)O)C(=O)NCC(=O)N[C@@H](CCCCN)C(=O)N[C@@H](CC(C)C)C(=O)N[C@@H](CCCNC(=N)N)C(=O)N[C@@H](CCC(=O)O)C(=O)N[C@@H](Cc1ccc(O)cc1)C(=O)N[C@@H](Cc1ccccc1)C(=O)N[C@@H](Cc1ccc(O)cc1)C(=O)N[C@@H](Cc1ccccc1)C(=O)N[C@@H](CCC(=O)O)C(=O)N[C@@H](CC(C)C)C(=O)N[C@@H](CC(=O)O)C(=O)N[C@@H](CCC(=O)O)C(=O)N[C@@H](C)C(=O)N[C@@H](CCC(=O)O)C(=O)N[C@@H](CCCNC(=N)N)C(=O)N[C@H](C(=O)N[C@@H](CC(N)=O)C(=O)N[C@H](C(=O)O)C(C)C)C(C)C)C(C)C | Serine/threonine-protein phosphatase PP1-gamma catalytic subunit (Homo sapiens, UniProt P36873) | ITC | – | 25 °C | – | ΔH | -34.4 ± 9.6 kcal/mol
Nc1ncnc2c1ncn2[C@@H]1O[C@H](COP(=O)(O)OP(=O)(O)OP(=O)(O)O)[C@@H](O)[C@H]1O | dnaK (Escherichia coli, UniProt P0A6Y8, E213C/T22C) | conformational change, inducer, stopped-flow fluorescence quenching | – | linker insertion, medium phase | – | rate constant | 205 s⁻¹
CC[C@@H](C)[C@@H](NC(=O)[C@@H](Cc1ccc(O)cc1)NC(=O)[C@H]1CCCN1C(=O)[C@@H](CCCNC(=N)N)NC(=O)[C@H](N)Cc1c[nH]cn1)C(=O)N[C@H](C)C(=O)N[C@H](Cc1c[nH]cn1)C(=O)N[C@H](CCCNC(=N)N)C(=O)N[C@H](CCCCNC(=O)c1cccc(S(=O)(=O)F)c1)C(=O)N[C@H](Cc1ccc(O)cc1)C(=O)N[C@H](CO)C(=O)N[C@H](Cc1ccccc1)C(N)=O | Transferrin receptor protein 1 (Tfrc, Mus musculus, UniProt Q62351) | flow cytometry | RAW264.7 | 2 h, pH 6, replicate 1, unit not given | reference: 0 h | surface TFRC expression | 0.728
O=C(O)CCC(=O)C(=O)O | Hypoxia-inducible factor 1-alpha inhibitor (HIF1AN, Homo sapiens, UniProt Q9NWT6, Q147A) | cosubstrate | – | pH 7.00, 37.0 °C, mutant Q147A, added: CTAD peptide 100 µM, cosubstrate 217 µM | – | Km | 38 ± 8 µM
CC(Oc1ccc(C(=O)c2ccc(F)cc2)cc1)C(=O)N1CCc2ccccc21 (stereo not shown) | PFF0160c E182D | enzyme activity, DCIP colorimetric | – | – | reference: E182D mutant over wild type | IC50 ratio | 0.2
COc1cc(Nc2ncc(F)c(Nc3ccc4c(n3)NC(=O)C(C)(C)O4)n2)cc(OC)c1OC | Tyrosine-protein kinase Srms (SRMS, Homo sapiens, UniProt Q9H3Y6) | KINOMEscan | – | 10 µM | – | inhibition | 86%
COc1ccc(N2C(=O)N(c3c(C)cccc3Cl)Cc3cnc(Nc4ccc(C5CCN(C)CC5)cc4OC)nc32)nc1 | Tyrosine-protein kinase JAK3 (JAK3, Homo sapiens, UniProt P52333) | kinase activity | – | 0.5 µM | – | inhibition | 3.64%
Oc1ccc(Cl)cc1Sc1cc(Cl)ccc1O | ACHE | – | biochemical | concentration not given | – | activity class | inactive
COC(=O)[C@@]1(O)C[C@H]2O[C@]1(C)n1c3ccccc3c3c4c(c5c6ccccc6n2c5c31)C(=O)NC4 | Mitogen-activated protein kinase 3 (MAPK3, Homo sapiens, UniProt P27361) | ADP-Glo | – | 10 µM, added: MBP substrate | – | kinase activity | 0.823% and 8.98% and 2.01%
CCCn1c(O)nnc1SCC(=O)Nc1cc(Cl)ccc1Cl | PFF0160c E182D | enzyme activity, DCIP colorimetric | – | – | reference: E182D mutant over wild type | IC50 ratio | 2.4
C[C@H]1CN(c2n[nH]c3nc(N[C@H]4CC[C@H](NS(=O)(=O)CCC(F)(F)F)CC4)ncc23)CCO1 | Isoleucine--tRNA ligase, cytoplasmic (Homo sapiens, UniProt P41252) | Kinobeads competition, refers to: IARS | – | 20 µM, unit not given | reference: vehicle | remaining binding | 1.13

A few entries again:
SMILES | target | test | test system | conditions | scale | endpoint | result
c1csc(-c2nnc3sc(Cc4ccc5c(c4)CCCC5)nn23)c1 | PFF0160c E182D | enzyme activity, DCIP colorimetric | – | – | reference: E182D mutant over wild type | IC50 ratio | 1.3
COc1cc(N)c(Cl)cc1C(=O)NC1CN2CCC1CC2 (stereo not shown) | G-protein coupled bile acid receptor 1 (GPBAR1, Homo sapiens, UniProt Q8TDU6) | receptor activation, TANGO luminescence | – | concentration not given, unconfirmed screen | reference: vehicle control | log2 fold change | 0.162
O=C(Nc1cccnn1)N1CCC(=Cc2cccc(Oc3ccc(C(F)(F)F)cn3)c2)CC1 | Sodium-dependent serotonin transporter (SLC6A4, Homo sapiens, UniProt P31645) | radioligand binding, inhibitor | – | 50 µM, human, added: [3H]paroxetine | – | inhibition | 34%
